# Measurements collected from several papers.
# Every numbered part comes from another study and shows a few of its results, in no order. Substitutions count along the parent as printed.

# Block 1
# Target: CCNB1, cyclin fold, Cln2 fusion (human)
# Technique: yeast growth competition, sequencing
# Sample: yeast
# Setting: weak parent motif
# Baseline: not given
# Direction: higher = stronger binding
# Starting sequence: AKAP12 docking peptide (human); GSPLKKLFTSTGL
Substitution,normalised enrichment score
GSPLKKLFTATGL [S10A],0.856
GSPLKKLFTSTAL [G12A],-0.659
GSPLKKLFTSTGA [L13A],-0.0622
GSPAKKLFTSTGL [L4A],0.106
GSPLKKLATSTGL [F8A],-0.422
GSPLRKLFTSTGL [K5R],0.0541
GSPLKKLFASTGL [T9A],0.525

# Block 2
# Target: RNA binding protein fox-1 homolog 2, RRM domain, GST-SBP tag (RBFOX2, Homo sapiens, UniProt O43251-10, residues 100-194)
# Technique: RNA Bind-n-Seq
# Form: RNA
# Sample: in vitro
# Concentration: 365 nM
# Setting: natural RNA segment, single round, ends assumed
# Baseline: no-protein control
# Direction: higher = stronger binding
# All sequences stand within: GGGAGUUCUACAGUCCGACGAUC … UGGAAUUCUCGGGUGCCAA
# Target sequence (chain): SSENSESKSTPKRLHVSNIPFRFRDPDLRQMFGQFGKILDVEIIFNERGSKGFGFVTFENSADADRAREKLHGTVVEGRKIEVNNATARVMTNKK
Strand,RBNS enrichment (R)
CAGAUAGAUGGUGGUAUGUUGGGUGGAAAGACAAGUUGACCAAGUUCCCUUGUCGAUGCUGAUUCCUGGAGUCAGUUGGUUAUGAGUAGUAUAAGGGAUUCCCACUACAA,1.17
CCACCAUGGCACAGGUGCUAUGGCGGGAUGGUCAUCUCACUCCCUAGCUUCCUGUGGGUCAGGAGUGCAGAGCCACAGCCCACCCUGAACUGUCUGUGCCAGUGAGCGCC,0.248
UGGGUUCGGGUCACUGCGGCGACGACUUGCUCAGACUGUCCCGGCGGCCGGAGUGACUUUCUCGCACCCCCUUGCCUGUCCCACCUCGCUGAACACCAUCCCGCCAUUAG,0.293
UGAAGCACCCGUGACUGCAACCCGGGCGGUUGUUGCUAGAGCCUUGCCAGUCCUUGGAAGAAGAGUUCAUCUGGGUCUGAUUGACUGUAGAGAUUUGACACGUUCAUAAA,0.645
UCUCCAGACCUUGCUGCCCUUGCCUGGUCAUCUUUGUACAGUAAUUGUAAAUGGCAGUGGAGACUAUGGUGUUCCUGAGGGGCAAUGGCAGGUCACUCUCCCGAUCUCCC,0.327
UGUCACUUUGCCUGGAGGUGCUUCAAGCCUUUAACAAGGAGCAGAGAAGAAUUGGAGCCAGACUUUAGUGAACUCAGCUCAGAGUUGUAAGGACCAGCACACUGGUGGCC,0.269
UAUGUUCAAUAUUUGUAUUUGUGUUCUCUUUUGUUAUUUUUAAUUAGGGUAUAUGAAUAUUUUGCAAUAAUUUUAAUAAUUAUUAAGCUGUUUGAAGGAAAGAAUAUGGA,0.875
AGCUGGUGUUAAAGUUCCCACGACGCACAUGGCUUUGCCAGAAACUCUGUUUAAUGAUCGGCCUUUCACCUCUUCACUUAUCCUUAGUCCCAGUAGCCAGGAUACCUGAU,0.414
AAAUGAUAGGCCCUACCUUUGAAGUUUCUAAGACUUAUUAUGGGAUGUAAAUCUGUUUUUUAAAAACACUUUUUAGGGGCUUGAGAGCUGCCACCUGGCAUUUAGUUUAG,0.44
CUGUAUCCACAAAAUCUCCACUGCUGUCGAGUGUCCUUUAGCUGUGGACCAAAGGCAACCCCUGCAGUGUCUGUGAAAUGAUUUGAAGACCGUUCAGGCCACGCAAUAUG,0.411
GAUAGUUGACCUCUGAGUCAGUGAGACCAACAAUGAGUGGUGGCCCCAGGCUUUGUUUCCUUUGCUCGUGCCUUAUACUCACAUAUAUCCAAUAUAACCCAUGGUGUUAA,0.474
AUCUUGCUCCCAGGACCUGCCUCUUCCCAGGCUUCCUGGGGAAGAGUUGUACGCCCAGGCAACAAGGGCUGAGCUGCGCUUGCGUGGCUGUUUCAUGACCGCUUGUUUUU,0.215

# Block 3
# Target: Fragile X messenger ribonucleoprotein 1, C-terminal low-complexity region (Fmr1, Mus musculus, UniProt P35922)
# Technique: RNA Bind-n-Seq
# Form: RNA
# Sample: in vitro
# Concentration: 200 nM
# Setting: whole 134-nt RNA, ends assumed
# With: 150 mM LiCl
# Baseline: input library
# Direction: higher = stronger binding
# Each molecule: 7-deaza-guanosine replaces G
# All sequences stand within: GGGAGUUCUACAGUCCGACGAUC … UGGAAUUCUCGGGUGUCAAGG
Strand,log2 enrichment
UGCCCCUGGUGGCAUGCGGGGAGGAAGAGGUGGCCUCAUGGAUCGUGGUGGUCCCGGUGGAAUGUUCAGAGGUGGCCGUGGUGGAGACAG,-1.2
UCCUGUGCUACACAUCGUAUGUACCGAAUCAAAUUUUUUUAAAUUUAAACCCCCCCAAAAAAGUAUUAUGUUACGCCGUUCGGAUCUGCA,2.03
UGGGAGGUGGAUUUUGUUUAUUUUCUUAGCUCAUUUCCAGGGGUGGGAAUUUUUUUUUAAUAUGUGUCAUGAAUAAAGUUGUUUUUGAAA,-0.438
UACAGGAGCUUCCUGGGACUGACCUGCCUGAUGCAAAUUUCUACUCGGACGGAAGACUUCAUCAUUGACACCCUCGAGCUUCGAAGUGAC,-0.592
CAAGUCCUGUGCUACACAUCGUAUGUACCGAAUCGGGGCCCGGGCCCGGGGCCCGGAAAGUAUUAUGUUACGCCGUUCGGAUCUGCACUU,-1.79
UCCCAGCCGAGGACGUCGGAUGUCAUCGUCCUUGCUGCUUUGCCACCCCAUUCCCGUCAAUAAAGUGGUUUGAACCCAACCCUGGUGUCG,-0.591
AGUCCUGUGCUACACAUCGUAUGUACCGAAUCGGGCCCCGGGGCCCCGGGCCCCGGGGAAAGUAUUAUGUUACGCCGUUCGGAUCUGCAC,-1.85
UUGUUUAUUCUGUGUCUUUUGCCUCCUUUCCUACAGAUGUCCGGCAGGAUAAUGCUGCUGGCAGAGCUGGCUCCAGUAGCCUUACACAGG,0.992
UCCUGUGCUACACAUCGUAUGUACCGAAUCGGGGAAAAAGGGGUUUUUGGGGUUUGGGGAAAGUAUUAUGUUACGCCGUUCGGAUCUGCA,-1.45
UCCUGUGCUACACAUCGUAUGUACCGAAUCGUGUGUGUGUGUGUGUGUGUGUGUGUGUGUAAAGUAUUAUGUUACGCCGUUCGGAUCUGC,-0.453
CUCAAGUCCUGUGCUACACAUCGUAUGUACCGAAUCGGGGUGGGGUGGGUGGGGAAAGUAUUAUGUUACGCCGUUCGGAUCUGCACUUCC,-0.184

# Single results of other studies
Substance,target,test,system,conditions,how to read,quantity,value
"PhoQ, residues 284 288 289 292 302 303 DDMDFR","PhoP, residues 12 14 15 18 19 TPWLV (Escherichia coli, UniProt P23836)","Sort-seq, measured: YFP reporter",E. coli,"PhoQ-PhoP variant library, with: 10 µM Mg2+","baseline: high Mg2+ state, higher = stronger signaling",fold induction,0.841

# Repeated from above (block 3):
Strand,log2 enrichment
AGUCCUGUGCUACACAUCGUAUGUACCGAAUCGGGCCCCGGGGCCCCGGGCCCCGGGGAAAGUAUUAUGUUACGCCGUUCGGAUCUGCAC,-1.85
UUGUUUAUUCUGUGUCUUUUGCCUCCUUUCCUACAGAUGUCCGGCAGGAUAAUGCUGCUGGCAGAGCUGGCUCCAGUAGCCUUACACAGG,0.992
UCCUGUGCUACACAUCGUAUGUACCGAAUCGGGGAAAAAGGGGUUUUUGGGGUUUGGGGAAAGUAUUAUGUUACGCCGUUCGGAUCUGCA,-1.45
